Published values from different studies.
Protocols differ between the studies behind these lines.
Chain of UniProt P25101 (whole entry, looked up): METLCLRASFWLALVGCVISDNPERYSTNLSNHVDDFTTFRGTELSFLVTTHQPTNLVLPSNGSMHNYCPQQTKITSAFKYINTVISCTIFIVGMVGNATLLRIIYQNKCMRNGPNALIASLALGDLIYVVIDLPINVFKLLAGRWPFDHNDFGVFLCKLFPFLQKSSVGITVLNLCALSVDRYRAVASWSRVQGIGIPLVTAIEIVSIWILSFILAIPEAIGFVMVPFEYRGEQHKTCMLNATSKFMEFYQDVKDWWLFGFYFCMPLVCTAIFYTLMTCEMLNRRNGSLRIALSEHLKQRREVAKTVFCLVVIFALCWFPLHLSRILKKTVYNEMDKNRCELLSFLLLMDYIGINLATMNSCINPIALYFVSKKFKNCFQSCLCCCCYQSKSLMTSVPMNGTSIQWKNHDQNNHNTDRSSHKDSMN
Chain of UniProt Q96S44 (whole entry, looked up): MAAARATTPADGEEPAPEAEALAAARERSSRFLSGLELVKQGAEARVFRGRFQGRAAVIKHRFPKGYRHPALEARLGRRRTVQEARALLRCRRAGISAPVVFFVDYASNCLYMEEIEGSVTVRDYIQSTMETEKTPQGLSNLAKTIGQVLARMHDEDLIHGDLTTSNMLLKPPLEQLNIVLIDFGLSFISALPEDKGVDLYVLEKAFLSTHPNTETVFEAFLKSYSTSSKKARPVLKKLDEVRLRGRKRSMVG
Chain of UniProt P29350 (whole entry, looked up): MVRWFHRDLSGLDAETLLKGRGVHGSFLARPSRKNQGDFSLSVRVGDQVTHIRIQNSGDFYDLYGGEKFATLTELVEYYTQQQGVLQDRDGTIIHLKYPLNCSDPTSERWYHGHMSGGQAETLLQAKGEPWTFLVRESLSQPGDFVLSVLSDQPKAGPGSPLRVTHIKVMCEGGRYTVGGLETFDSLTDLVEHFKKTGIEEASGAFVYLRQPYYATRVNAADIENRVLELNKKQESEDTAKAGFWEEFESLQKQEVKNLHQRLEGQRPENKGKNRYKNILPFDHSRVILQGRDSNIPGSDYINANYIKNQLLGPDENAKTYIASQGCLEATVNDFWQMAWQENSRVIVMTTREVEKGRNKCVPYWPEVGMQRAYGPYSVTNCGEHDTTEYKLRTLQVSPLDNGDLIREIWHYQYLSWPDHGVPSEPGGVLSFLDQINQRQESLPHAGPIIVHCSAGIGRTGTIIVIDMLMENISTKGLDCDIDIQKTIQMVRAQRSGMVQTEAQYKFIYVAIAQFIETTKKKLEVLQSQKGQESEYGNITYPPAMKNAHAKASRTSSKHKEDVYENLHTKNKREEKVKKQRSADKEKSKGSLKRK
Chain of UniProt Q53H76 (whole entry, looked up): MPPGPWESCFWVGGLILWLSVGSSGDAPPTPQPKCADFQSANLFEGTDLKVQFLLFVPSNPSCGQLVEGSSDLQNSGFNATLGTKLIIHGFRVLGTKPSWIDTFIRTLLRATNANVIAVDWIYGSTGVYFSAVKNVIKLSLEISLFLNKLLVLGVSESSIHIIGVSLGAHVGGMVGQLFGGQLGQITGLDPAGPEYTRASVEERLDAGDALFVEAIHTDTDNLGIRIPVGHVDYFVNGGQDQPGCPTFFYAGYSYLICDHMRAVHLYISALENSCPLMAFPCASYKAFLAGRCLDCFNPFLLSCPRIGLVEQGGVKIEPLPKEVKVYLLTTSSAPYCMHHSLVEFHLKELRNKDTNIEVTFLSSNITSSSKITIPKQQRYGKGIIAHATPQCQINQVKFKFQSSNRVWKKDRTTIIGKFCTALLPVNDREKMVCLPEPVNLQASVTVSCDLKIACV
Chain of UniProt O15264 (whole entry, looked up): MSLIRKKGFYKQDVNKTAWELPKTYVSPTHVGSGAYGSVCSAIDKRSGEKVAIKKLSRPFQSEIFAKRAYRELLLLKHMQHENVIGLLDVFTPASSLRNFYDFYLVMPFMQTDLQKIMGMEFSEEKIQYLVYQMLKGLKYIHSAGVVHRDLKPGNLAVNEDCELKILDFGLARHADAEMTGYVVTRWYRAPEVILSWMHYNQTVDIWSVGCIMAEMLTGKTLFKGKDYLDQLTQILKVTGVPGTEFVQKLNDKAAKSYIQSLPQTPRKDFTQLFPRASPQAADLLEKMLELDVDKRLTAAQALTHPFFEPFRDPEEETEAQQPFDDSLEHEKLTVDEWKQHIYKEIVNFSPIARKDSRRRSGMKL

Compound | target or system | test | test system | setting | how to read | quantity | result
O=C(O)C[C@H](NC(=O)[C@H](CC(=O)O)NC(=O)[C@H](CC(=O)O)NC(=O)[C@H](CC(=O)O)NC(=O)[C@H](CC(=O)O)NC(=O)[C@H](CC(=O)O)NC(=O)[C@H](CC(=O)O)NC(=O)[C@H](CC(=O)O)NC(=O)[C@H](CC(=O)O)NC(=O)[C@H](CC(=O)O)NC(=O)[C@H](CC(=O)O)NC(=O)[C@H](CCCCNC(=O)c1ccc(C(=O)NCCOCCOB2BBBBBB3BBBB3B2)cc1)NC(=O)CN1CCN(CC(=O)O)CCN(CC(=O)O)CCN(CC(=O)O)CC1)C(=O)O [gallium-67 labelled] |  |  | ddY male mice, lung | intravenous, 37 kBq, 3 h |  | tissue uptake | 0.07 %ID/g
COc1cc(Nc2ncc(F)c(Nc3ccc4c(n3)NC(=O)C(C)(C)O4)n2)cc(OC)c1OC | Endothelin-1 receptor (EDNRA, Homo sapiens, UniProt P25101) |  |  |  |  | IC50 | > 10 µM
CSCC[C@H](NC(=O)CNC(=O)[C@H](Cc1ccccc1)NC(=O)[C@H](CC(=O)O)NC(=O)CNC(=O)c1ccc2c(c1)C(=O)OC21c2ccc(N(C)C)cc2Oc2cc(N(C)C)ccc21)C(=O)N[C@@H](CO)C(=O)N[C@@H](CCCNC(=N)N)C(=O)N[C@@H](CC(=O)O)C(=O)N[C@H](C(=O)N[C@@H](Cc1ccc(OP(=O)(O)O)cc1)C(=O)N[C@@H](CO)C(=O)N[C@H](C(=O)N[C@@H](CC(=O)O)C(=O)N[C@@H](Cc1ccc(O)cc1)C(=O)N[C@@H](Cc1ccc(O)cc1)C(=O)N[C@@H](CCCNC(=N)N)C(=O)N[C@H](C(=O)N[C@@H](CC(=O)O)C(=O)O)C(C)C)[C@@H](C)O)C(C)C | Tyrosine-protein phosphatase non-receptor type 6, SH2 domains (PTPN6, Homo sapiens, UniProt P29350) | binding |  |  |  | Kd | 967 nM
CCCCCCCCCCCCCCCC(=O)N[C@@H](CCC(=O)NCCCC[C@H](NC(=O)[C@H](CC(=O)O)NC(=O)[C@H](CO)NC(=O)[C@@H](NC(=O)[C@H](Cc1ccccc1)NC(=O)[C@@H](NC(=O)CNC(=O)[C@H](CCC(N)=O)NC(=O)[C@H](CO)NC(=O)[C@@H](N)Cc1c[nH]cn1)[C@@H](C)O)[C@@H](C)O)C(=O)N[C@@H](CO)C(=O)N[C@@H](CCC(=O)O)C(=O)N[C@@H](Cc1ccc(O)cc1)C(=O)N[C@@H](CC(C)C)C(=O)N[C@@H](CC(=O)O)C(=O)N[C@@H](CO)C(=O)N[C@@H](CCC(=O)O)C(=O)N[C@@H](CCCNC(=N)N)C(=O)N[C@@H](C)C(=O)N[C@@H](CCCNC(=N)N)C(=O)N[C@@H](CC(=O)O)C(=O)N[C@@H](Cc1ccccc1)C(=O)N[C@H](C(=O)N[C@@H](C)C(=O)N[C@@H](Cc1c[nH]c2ccccc12)C(=O)N[C@@H](CC(C)C)C(=O)N[C@@H](CCC(=O)O)C(=O)N[C@@H](C)C(=O)NCC(=O)NCC(=O)O)C(C)C)C(=O)O |  | refers to: Diarrhoea | humans CrCl 45 to 60 mL/min | subcutaneous, 100 µg single dose |  | treatment-related adverse events | 0%
CC(C)Nc1ccnc(Nc2cccc(-c3cccnc3)c2)n1 |  | refers to: albumin | mouse, blood | intraperitoneal, 5 mg/kg |  | blood chemistry | 3.9 g/dL
CN(C)C1(CNC(=O)c2ccc3c(c2)CCN3C(=O)c2ccccc2)CCOCC1 |  |  | C57BL/6 mice, male, plasma | intraperitoneal, 50 mg/kg, 120 min |  | unbound plasma concentration | 153 nM
CC[C@H](C)CCCCC(=O)N[C@@H](CCN)C(=O)N[C@H](C(=O)N[C@@H](CCN)C(=O)N[C@H]1CCNC(=O)[C@H]([C@@H](C)O)NC(=O)[C@H](CCN)NC(=O)[C@H](CCN)NC(=O)[C@H](CC(C)C)NC(=O)[C@@H](Cc2ccccc2)NC(=O)[C@H](CCN)NC1=O)[C@@H](C)O |  |  | critically ill non-survivors, plasma | intravenous, 2.2 mg/kg/day, 6 h, median |  | concentration at steady state | 1900 ng/mL
Cn1c(-c2ccc(C(N)=O)cc2F)nnc1C(C)(C)Oc1c(F)cc(Cl)cc1F |  |  | human | oral, 1 mg, single ascending dose |  | vessel puncture site pain | 0%
COc1ccc([C@@H](O)c2cc(-c3ncnc4cc(N5CCOCC5)ccc34)c(F)cc2Cl)nn1 |  |  | patients, advanced solid tumours | oral, 300 mg twice daily, treatment-emergent, with: avelumab | relative to: patients | hyponatraemia incidence | 4%
C[C@]1(CO)Cc2ncn(-c3ccc(C#N)c(Cl)c3)c2C(=O)O1 |  | refers to: abnormal skin odour | human | 20 mg multiple doses, fasted |  | subjects with drug-related TEAE | 0%
C[C@@H](NC(=O)N1C(=O)[C@H](Cc2ccnc(N)c2)[C@H]1C(=O)O)C1CCCCC1 |  |  | healthy adult Chinese volunteers | continuous intravenous infusion, 1.0 mg/kg/h, 5-day infusion, CTCAE 5.0 grading |  | incidence of infusion site pain | 0%
COc1ccc(N2C(=O)N(c3c(C)cccc3Cl)Cc3cnc(Nc4ccc(C5CCN(C)CC5)cc4OC)nc32)nc1 | Mitogen-activated protein kinase 13 (MAPK13, Homo sapiens, UniProt O15264) | kinase activity, inhibitor |  | 0.5 µM, kinase P38-DELTA |  | inhibition | 3.58%
O=C(c1ccc(Cl)cc1)N1CCN2C(=O)N(OC(=O)N3CCOc4ccccc43)C(=O)C2C1 (stereo not shown) | Phospholipase A1 member A (PLA1A, Homo sapiens, UniProt Q53H76) | MS-based ABPP | SW-620 conditioned medium | 10 µM, 1 h, 37 °C | relative to: compound over DMSO, lower = more inhibition | median protein ratio | 1.03
CCc1ccc(CC/C=C/c2ccc3c(c2)C(=O)CC3)cc1 |  |  | Sprague-Dawley rat, male, blood | oral, 30 mg/kg/day, 14 days |  | large unstained cells | 1%
O=C1Nc2cc3[nH]nc(-c4ccncc4)c3cc2CN1Cc1ccccc1 |  | CTCAE v4.03 | advanced solid tumour patients | intravenous, 3.6 mg/kg |  | patients with diarrhoea | 0%
CCN(CCO)CCCC(C)Nc1ccnc2cc(Cl)ccc12 (stereo not shown) |  |  | human, newly diagnosed glioblastoma | oral, 400 mg/dose, maculopapular rash grade 2, with RT and TMZ |  | patients with adverse event | 14%
N#CCNC(=O)c1ccc(-c2ccnc(Nc3ccc(N4CCOCC4=O)cc3)n2)cc1 |  | population PK model, NONMEM | human | metabolite of momelotinib, typical value, final model |  | Vcm/F | 2.77 L
CC1(C)C(=O)N(c2ccc(C#N)c(C(F)(F)F)c2)C(=S)N1c1ccc(C(N)=O)c(F)c1 |  | population PK base model | human |  |  | clearance | 0.289 L/h
CC[C@H](C)[C@@H]1NC(=O)[C@@H]2CCCN2C(=O)[C@H](CC(C)C)NC(=O)[C@H](CC(C)C)NC(=O)CNC(=O)[C@@H](NC(=O)[C@@H](NC(=O)[C@H](CC(=O)O)NC(=O)CNC(=O)[C@@H](NC(=O)[C@H](C)NC(=O)CNC(=O)[C@H](CCCCN)NC(=O)[C@H](CC(C)C)NC(=O)[C@H](CC(C)C)NC(=O)[C@H](CCCCN)NC(=O)CNC(=O)[C@@H](NC(=O)[C@@H](N)CC(C)C)C(C)C)C(C)C)C(C)C)CSSC[C@@H](C(=O)O)NC1=O |  | RNA-seq, refers to: Serpina3g mRNA | mouse traumatic brain injury, frontal cortex and hippocampus | dose not given | relative to: TBI plus compound vs TBI | log2 fold change | -2.23
C[C@H]1CN(c2n[nH]c3nc(N[C@H]4CC[C@H](NS(=O)(=O)CCC(F)(F)F)CC4)ncc23)CCO1 | EKC/KEOPS complex subunit TP53RK (TP53RK, Homo sapiens, UniProt Q96S44) | inhibitor, Kinobeads competition profiling |  | 0.8 µM | relative to: vehicle | relative abundance | 1.12
O=C(Nc1ccccc1)C1CCN(C(=O)Oc2cccnc2)CC1 |  | psychotropic effects VAS | healthy women | 60 mg | relative to: pre-dose baseline, direction not given | change in Body score | 3.4
COc1cc2c(Oc3ccc4[nH]c(C)cc4c3F)ccnc2cc1OCC1(N)CC1 |  |  | paediatric recurrent refractory sarcoma | 10 mg |  | grade 1 or 2 Neutropenia | 0%

Repeated from above:
Compound | target or system | test | test system | setting | how to read | quantity | result
Cn1c(-c2ccc(C(N)=O)cc2F)nnc1C(C)(C)Oc1c(F)cc(Cl)cc1F |  |  | human | oral, 1 mg, single ascending dose |  | vessel puncture site pain | 0%
C[C@]1(CO)Cc2ncn(-c3ccc(C#N)c(Cl)c3)c2C(=O)O1 |  | refers to: abnormal skin odour | human | 20 mg multiple doses, fasted |  | subjects with drug-related TEAE | 0%
CC[C@H](C)[C@@H]1NC(=O)[C@@H]2CCCN2C(=O)[C@H](CC(C)C)NC(=O)[C@H](CC(C)C)NC(=O)CNC(=O)[C@@H](NC(=O)[C@@H](NC(=O)[C@H](CC(=O)O)NC(=O)CNC(=O)[C@@H](NC(=O)[C@H](C)NC(=O)CNC(=O)[C@H](CCCCN)NC(=O)[C@H](CC(C)C)NC(=O)[C@H](CC(C)C)NC(=O)[C@H](CCCCN)NC(=O)CNC(=O)[C@@H](NC(=O)[C@@H](N)CC(C)C)C(C)C)C(C)C)C(C)C)CSSC[C@@H](C(=O)O)NC1=O |  | RNA-seq, refers to: Serpina3g mRNA | mouse traumatic brain injury, frontal cortex and hippocampus | dose not given | relative to: TBI plus compound vs TBI | log2 fold change | -2.23
